# Assay results pooled from the literature.
# A part holds a random share of what one study measured. Values joined by “and” are separate records of one study, mostly repeats; a detail may differ.
# UniProt O75460, sequence (whole entry, looked up): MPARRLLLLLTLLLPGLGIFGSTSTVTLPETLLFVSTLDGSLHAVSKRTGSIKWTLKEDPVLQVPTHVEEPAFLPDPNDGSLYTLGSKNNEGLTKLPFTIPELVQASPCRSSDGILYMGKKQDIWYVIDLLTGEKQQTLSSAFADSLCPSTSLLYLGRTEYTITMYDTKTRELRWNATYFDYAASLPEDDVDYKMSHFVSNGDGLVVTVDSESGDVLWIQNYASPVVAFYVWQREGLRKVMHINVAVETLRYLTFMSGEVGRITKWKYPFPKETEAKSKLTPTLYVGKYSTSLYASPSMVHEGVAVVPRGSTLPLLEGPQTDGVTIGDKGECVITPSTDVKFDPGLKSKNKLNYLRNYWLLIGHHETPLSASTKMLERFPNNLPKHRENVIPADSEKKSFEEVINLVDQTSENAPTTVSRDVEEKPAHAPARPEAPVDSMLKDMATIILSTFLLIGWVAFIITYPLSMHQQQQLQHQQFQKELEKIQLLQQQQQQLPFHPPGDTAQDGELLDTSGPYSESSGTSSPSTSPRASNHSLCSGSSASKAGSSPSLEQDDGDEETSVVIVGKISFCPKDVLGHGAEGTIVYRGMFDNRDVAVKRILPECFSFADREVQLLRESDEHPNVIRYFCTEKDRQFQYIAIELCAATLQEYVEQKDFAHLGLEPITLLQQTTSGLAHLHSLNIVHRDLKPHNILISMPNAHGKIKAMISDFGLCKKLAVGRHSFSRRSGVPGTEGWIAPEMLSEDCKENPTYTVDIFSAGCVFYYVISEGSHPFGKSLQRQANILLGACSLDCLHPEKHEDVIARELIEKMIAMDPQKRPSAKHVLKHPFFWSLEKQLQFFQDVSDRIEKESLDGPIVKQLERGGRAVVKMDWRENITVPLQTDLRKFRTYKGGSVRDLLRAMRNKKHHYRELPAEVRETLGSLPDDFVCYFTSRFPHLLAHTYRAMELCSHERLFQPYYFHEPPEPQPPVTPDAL
# UniProt Q15746, sequence (whole entry, looked up): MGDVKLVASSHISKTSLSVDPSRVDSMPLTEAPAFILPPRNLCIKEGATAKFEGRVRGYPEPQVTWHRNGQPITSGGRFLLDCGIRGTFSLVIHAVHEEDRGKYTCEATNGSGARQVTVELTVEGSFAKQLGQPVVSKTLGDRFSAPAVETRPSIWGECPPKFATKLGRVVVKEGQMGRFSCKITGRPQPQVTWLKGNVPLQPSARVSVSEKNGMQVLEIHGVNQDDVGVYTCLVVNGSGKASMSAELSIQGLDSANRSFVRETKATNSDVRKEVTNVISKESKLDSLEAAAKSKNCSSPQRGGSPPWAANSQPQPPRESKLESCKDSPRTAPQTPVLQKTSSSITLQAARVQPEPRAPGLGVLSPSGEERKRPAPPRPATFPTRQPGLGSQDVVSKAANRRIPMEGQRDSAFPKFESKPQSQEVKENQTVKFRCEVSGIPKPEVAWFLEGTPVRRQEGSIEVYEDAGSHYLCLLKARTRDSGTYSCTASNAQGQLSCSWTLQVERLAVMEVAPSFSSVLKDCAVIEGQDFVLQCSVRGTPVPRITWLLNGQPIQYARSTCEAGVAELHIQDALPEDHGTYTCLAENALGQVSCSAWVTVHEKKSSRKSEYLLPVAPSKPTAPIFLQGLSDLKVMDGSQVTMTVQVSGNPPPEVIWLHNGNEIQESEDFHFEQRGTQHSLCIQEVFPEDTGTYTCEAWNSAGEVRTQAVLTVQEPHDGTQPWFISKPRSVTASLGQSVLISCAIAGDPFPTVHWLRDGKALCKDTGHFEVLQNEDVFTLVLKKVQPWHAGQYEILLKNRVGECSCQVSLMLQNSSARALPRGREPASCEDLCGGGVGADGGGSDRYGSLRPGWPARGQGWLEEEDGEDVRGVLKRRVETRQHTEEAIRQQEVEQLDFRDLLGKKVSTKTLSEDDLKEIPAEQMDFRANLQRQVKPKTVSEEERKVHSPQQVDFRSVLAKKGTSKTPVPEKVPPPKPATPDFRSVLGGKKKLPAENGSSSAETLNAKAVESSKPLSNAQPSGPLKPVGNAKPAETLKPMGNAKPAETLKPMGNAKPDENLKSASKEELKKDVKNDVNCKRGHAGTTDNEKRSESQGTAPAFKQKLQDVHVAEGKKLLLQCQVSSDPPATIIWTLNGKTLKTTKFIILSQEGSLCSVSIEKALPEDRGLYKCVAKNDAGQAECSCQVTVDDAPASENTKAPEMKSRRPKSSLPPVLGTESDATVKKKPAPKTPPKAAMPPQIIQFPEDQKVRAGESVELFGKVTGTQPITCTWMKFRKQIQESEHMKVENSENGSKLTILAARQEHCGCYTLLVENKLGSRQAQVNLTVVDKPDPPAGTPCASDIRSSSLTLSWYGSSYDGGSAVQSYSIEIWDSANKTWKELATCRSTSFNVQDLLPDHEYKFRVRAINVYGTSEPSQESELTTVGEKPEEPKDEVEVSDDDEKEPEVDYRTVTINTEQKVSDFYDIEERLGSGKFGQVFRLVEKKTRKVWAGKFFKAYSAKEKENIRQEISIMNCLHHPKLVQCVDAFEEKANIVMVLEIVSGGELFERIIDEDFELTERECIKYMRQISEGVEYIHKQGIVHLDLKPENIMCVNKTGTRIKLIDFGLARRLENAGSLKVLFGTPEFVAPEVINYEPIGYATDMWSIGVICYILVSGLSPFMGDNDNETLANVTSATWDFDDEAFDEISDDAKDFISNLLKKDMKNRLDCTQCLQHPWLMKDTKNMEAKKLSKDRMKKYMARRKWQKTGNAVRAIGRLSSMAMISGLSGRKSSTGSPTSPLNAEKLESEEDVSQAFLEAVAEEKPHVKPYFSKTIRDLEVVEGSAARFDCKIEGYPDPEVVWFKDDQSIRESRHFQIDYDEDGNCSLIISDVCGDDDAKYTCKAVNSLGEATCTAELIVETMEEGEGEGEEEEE
# UniProt Q8IVW4, sequence (whole entry, looked up): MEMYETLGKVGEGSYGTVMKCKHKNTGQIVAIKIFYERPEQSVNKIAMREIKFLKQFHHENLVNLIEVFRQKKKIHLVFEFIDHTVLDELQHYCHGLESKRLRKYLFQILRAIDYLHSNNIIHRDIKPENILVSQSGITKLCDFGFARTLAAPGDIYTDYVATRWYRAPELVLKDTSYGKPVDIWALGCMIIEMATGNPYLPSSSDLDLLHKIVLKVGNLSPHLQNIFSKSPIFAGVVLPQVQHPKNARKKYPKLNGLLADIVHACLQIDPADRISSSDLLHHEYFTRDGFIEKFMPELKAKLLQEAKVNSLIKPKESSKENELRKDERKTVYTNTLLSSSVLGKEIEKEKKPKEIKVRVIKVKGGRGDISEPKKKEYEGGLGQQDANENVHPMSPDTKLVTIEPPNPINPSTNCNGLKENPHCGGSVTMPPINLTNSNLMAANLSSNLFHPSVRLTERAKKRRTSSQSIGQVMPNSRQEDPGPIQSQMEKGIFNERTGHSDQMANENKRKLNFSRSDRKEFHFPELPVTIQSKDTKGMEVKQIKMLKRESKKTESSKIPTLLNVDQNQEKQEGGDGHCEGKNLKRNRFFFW

# Set 1
# Structure (SMILES): CN(C)c1ncnc(-c2ccc3nc(Nc4cc(CN5CCN(C(=O)CC(F)(F)F)CC5)ccn4)[nH]c3c2)c1Cl
# Read-out: cell-free assay
# Method: competition with immobilised ligand
# Tested at: 1 µM
target,remaining binding
"PLK1 (Homo sapiens, UniProt P53350)",59%
"ERN1 (Homo sapiens, UniProt O75460)",62%
"MKNK2 (Homo sapiens, UniProt Q9HBH9)",37%

# Set 2
# Target: Rho-associated protein kinase 1 (ROCK1, Homo sapiens, UniProt Q13464)
# UniProt Q13464, sequence (whole entry, looked up): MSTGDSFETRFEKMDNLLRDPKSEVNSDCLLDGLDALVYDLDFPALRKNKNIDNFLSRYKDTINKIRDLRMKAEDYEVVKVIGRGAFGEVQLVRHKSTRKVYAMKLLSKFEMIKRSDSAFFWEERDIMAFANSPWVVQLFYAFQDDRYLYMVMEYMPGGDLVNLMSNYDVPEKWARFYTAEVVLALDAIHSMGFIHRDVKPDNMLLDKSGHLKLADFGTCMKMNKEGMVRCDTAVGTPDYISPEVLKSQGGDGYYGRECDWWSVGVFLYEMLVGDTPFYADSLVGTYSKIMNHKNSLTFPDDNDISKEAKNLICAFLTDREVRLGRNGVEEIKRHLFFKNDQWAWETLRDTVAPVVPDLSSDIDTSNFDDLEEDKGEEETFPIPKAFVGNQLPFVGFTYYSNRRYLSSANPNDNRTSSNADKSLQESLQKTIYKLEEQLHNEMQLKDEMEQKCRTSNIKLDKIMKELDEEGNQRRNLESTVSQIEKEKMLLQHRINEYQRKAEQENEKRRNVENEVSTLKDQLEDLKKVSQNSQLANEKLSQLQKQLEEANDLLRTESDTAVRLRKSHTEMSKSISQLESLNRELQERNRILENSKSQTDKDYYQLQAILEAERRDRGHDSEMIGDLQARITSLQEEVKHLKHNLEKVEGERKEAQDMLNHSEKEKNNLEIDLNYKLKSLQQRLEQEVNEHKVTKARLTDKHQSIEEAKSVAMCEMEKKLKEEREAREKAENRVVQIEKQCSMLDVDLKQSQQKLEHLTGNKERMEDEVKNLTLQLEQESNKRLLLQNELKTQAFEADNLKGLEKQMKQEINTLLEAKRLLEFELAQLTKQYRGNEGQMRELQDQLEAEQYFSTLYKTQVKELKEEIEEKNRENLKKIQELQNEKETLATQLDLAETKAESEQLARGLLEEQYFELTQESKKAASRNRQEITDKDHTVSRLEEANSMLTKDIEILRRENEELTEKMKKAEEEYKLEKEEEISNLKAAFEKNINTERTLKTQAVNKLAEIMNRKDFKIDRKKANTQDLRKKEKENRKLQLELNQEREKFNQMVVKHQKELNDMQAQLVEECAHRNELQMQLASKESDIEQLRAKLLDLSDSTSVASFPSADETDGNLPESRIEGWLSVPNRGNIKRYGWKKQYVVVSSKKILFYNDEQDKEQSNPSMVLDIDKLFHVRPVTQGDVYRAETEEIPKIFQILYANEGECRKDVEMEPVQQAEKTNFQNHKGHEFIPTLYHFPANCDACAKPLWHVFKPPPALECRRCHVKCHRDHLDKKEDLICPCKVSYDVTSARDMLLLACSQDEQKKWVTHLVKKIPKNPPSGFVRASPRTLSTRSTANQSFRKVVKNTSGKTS
# Read-out: enzyme activity
# Mode: inhibitor
# Tested at: 0.5 µM
# Reference: control
Compound,remaining activity [%]
CNC(=O)c1cc(Oc2ccc(NC(=O)Nc3ccc(Cl)c(C(F)(F)F)c3)cc2)ccn1,102
Cc1nc(-c2ccccc2)c(-c2ccncc2)o1,99.8
O=C(O)c1ccc2c3c1cccc3c(=O)n1c3ccccc3nc21,104
O=C(CCCc1ccc(-c2ccccc2F)cc1)Nc1ccc(O)cc1,106
Nc1ccc2ncnc(NCCc3ccc(Oc4ccccc4)cc3)c2c1,94.4
Cn1c2ccccc2c2c3c(c4c5ccccc5n(CCC#N)c4c21)CNC3=O,61.9
NCCNc1ncc(C(N)=O)c(Nc2cccc(C(F)(F)F)c2)n1,87.8
CC(C)[C@H](CO)Nc1nc(Nc2cc(N)cc(Cl)c2)c2ncn(C(C)C)c2n1,90
Cc1ccc(NC(=O)c2ccc(CN3CCN(C)CC3)cc2)cc1Nc1nc(-c2cccnc2)cs1,102
O=C(Nc1cccc(Nc2cc(Nc3cccc(C(F)(F)F)c3)ncn2)c1)C1CC1,98.7
Oc1ccc(-c2nc(-c3ccncc3)c(-c3ccc(F)cc3)[nH]2)cc1,101
COc1cc2ncnc(Nc3ccc(F)c(Cl)c3)c2cc1OCCCN1CCOCC1,106
O=C1NC(=O)C(c2cn(CCCO)c3ncccc23)=C1c1cnccn1,90.2
C#Cc1cccc(Nc2ncnc3cc(OCCOC)c(OCCOC)cc23)c1,107

# Set 3
# SMILES: Cn1cnc(Cn2ccc3ccc(CNCc4[nH]c5ccccc5c4[C@H]4NC(=O)c5ccc(O)cc54)cc32)c1
# Target: GTPase KRas (KRAS, Homo sapiens, UniProt P01116, G12C)
# Read-out: binding
# Mode: competitor
# Method: NanoBRET
# Cells: HEK293
# Reference: vehicle and 20 µM BI compound
tested at,time,normalized BRET
339 pM,1 h,93.4% and 93.8% and 87.8%
27.4 nM,4 h,98% and 102% and 99.5% and 95.6%
1.02 nM,0.5 h,115% and 98.5% and 91.9% and 90.6%

# Set 4
# SMILES: CN1CCN(C(=O)c2ccc(NC(=O)Nc3ccc(N(C)c4ccnc(Nc5ccc(CS(C)(=O)=O)cc5)n4)cc3)cc2)CC1
# Tested at: 1 µM
target,read-out,method,remaining binding [%]
"PIK3C2G (Homo sapiens, UniProt O75747)",binding,,100
"Tyrosine-protein kinase JAK3, JH1 (JAK3, Homo sapiens, UniProt P52333)",cell-free assay,competition with immobilised ligand,5.4
"CDKL3 (Homo sapiens, UniProt Q8IVW4)",binding,competition with immobilised ligand,72
"MYLK (Homo sapiens, UniProt Q15746)",binding,,100
"RIOK3 (Homo sapiens, UniProt O14730)",binding,,0

# Set 5
# Species: human
# Sample: microsomes or S9
# Tested at: 2 µM
# Time: 0.5 h
SMILES,remaining compound [%]
O=S(=O)(O)c1ccc(-c2cnc(-c3ccc(-c4ncc(-c5ccc(S(=O)(=O)O)cc5)o4)cc3)o2)cc1,83.8
O=C(Cc1ccc(N(Cc2ccccc2)C(=O)C2CCCC2)cc1)NCc1ccco1,4.83
Cc1cc(C)c(S(=O)(=O)NC(CCC(=O)O)C(=O)O)cc1N(C)S(C)(=O)=O (centres unmarked),82.5
CCOC(=O)c1ccc(-c2ccc(C3CC(=O)Nc4cc5c(cc43)OCO5)o2)cc1 (centres unmarked),61.7

# Excerpt of the above (set 4):
target,read-out,method,remaining binding [%]
"PIK3C2G (Homo sapiens, UniProt O75747)",binding,,100
"Tyrosine-protein kinase JAK3, JH1 (JAK3, Homo sapiens, UniProt P52333)",cell-free assay,competition with immobilised ligand,5.4
"CDKL3 (Homo sapiens, UniProt Q8IVW4)",binding,competition with immobilised ligand,72
